Assay results from different studies.
Protocols differ between the studies behind these lines.
Technique: steady-state kinetics
B1: UGT84B1 (Arabidopsis thaliana, UniProt O22182); chain MGSSEGQETHVLMVTLPFQGHINPMLKLAKHLSLSSKNLHINLATIESARDLLSTVEKPRYPVDLVFFSDGLPKEDPKAPETLLKSLNKVGAMNLSKIIEEKRYSCIISSPFTPWVPAVAASHNISCAILWIQACGAYSVYYRYYMKTNSFPDLEDLNQTVELPALPLLEVRDLPSFMLPSGGAHFYNLMAEFADCLRYVKWVLVNSFYELESEIIESMADLKPVIPIGPLVSPFLLGDGEEETLDGKNLDFCKSDDCCMEWLDKQARSSVVYISFGSMLETLENQVETIAKALKNRGLPFLWVIRPKEKAQNVAVLQEMVKEGQGVVLEWSPQEKILSHEAISCFVTHCGWNSTMETVVAGVPVVAYPSWTDQPIDARLLVDVFGIGVRMRNDSVDGELKVEEVERCIEAVTEGPAAVDIRRRAAELKRVARLALAPGGSSTRNLDLFISDITIA
B2: enzyme R228K (Arabidopsis thaliana, UniProt O82390); chain MNARALLCSSNIHSLYTSNRPPEKTSSSRSLRNLKPSPKSLRVWIYPRNRSSVFRVLVRSSDKSESSNSYYVEGDKVSGNNDVVSDSPSSIVLPWWEEFPKRWVIVLLCFSAFLLCNMDRVNMSIAILPMSAEYGWNPATVGLIQSSFFWGYLLTQIAGGIWADTVGGKRVLGFGVIWWSIATILTPVAAKLGLPYLLVVRAFMGVGEGVAMPAMNNILSKWVPVQEKSRSLALVYSGMYLGSVTGLAFSPFLIHQFGWPSVFYSFGSLGTVWLTLWLTKAESSPLEDPTLLPEERKLIADNCASKEPVKSIPWRLILSKPPVWALISCHFCHNWGTFILLTWMPTYYHQVLKFNLMESGLLSVFPWMTMAISANAGGWIADTLVSRGFSVTNVRKIMQTIGFLGPAFFLTQLKHIDSPTMAVLCMACSQGTDAFSQSGLYSNHQDIAPRYSGVLLGLSNTAGVLAGVLGTAATGHILQHGSWDDVFTISVGLYLVGTVIWNLFSTGEKIID
B3: oxdC T165S (Bacillus subtilis, UniProt O34714); chain MKKQNDIPQPIRGDKGATVKIPRNIERDRQNPDMLVPPETDHGTVSNMKFSFSDTHNRLEKGGYAREVTVRELPISENLASVNMRLKPGAIRELHWHKEAEWAYMIYGSARVTIVDEKGRSFIDDVGEGDLWYFPSGLPHSIQALEEGAEFLLVFDDGSFSENSSFQLTDWLAHTPKEVIAANFGVTKEEISNLPGKEKYIFENQLPGSLKDDIVEGPNGEVPYPFTYRLLEQEPIESEGGKVYIADSTNFKVSKTIASALVTVEPGAMRELHWHPNTHEWQYYISGKARMTVFASDGHARTFNYQAGDVGYVPFAMGHYVENIGDEPLVFLEIFKDDHYADVSLNQWLAMLPETFVQAHLDLGKDFTDVLSKEKHPVVKKKCSK
B4: enzyme (Bacillus pumilus, UniProt A8FFI9); chain EARSIAWSVDEFFKNREGTFVIQEVKEKSPWVYNKKRAKERFAPQSTFKVANALIGLQTGAVRDEYDIKYWDGVKREIDNWNRDHTLGSGMRDSVVWYYQAMARDIGEERMNHWVKAIHYGNKDISGGIDQFWLSSTLRISPIEQVRFLKQLYEETLPFDLKNMRTVKRMMVQEEEKHATLYGKTGSGSDIGWYVGFIKHEHKTYILATNIKGTGIEAKDITYRILKKYHLMEASV
B5: CODH (Afipia carboxidovorans, UniProt P19920); chain MIPGSFDYHRPKSIADAVALLTKLGEDARPLAGGHSLIPIMKTRLATPEHLVDLRDIGDLVGIREEGTDVVIGAMTTQHALIGSDFLAAKLPIIRETSLLIADPQIRYMGTIGGNAANGDPGNDMPALMQCLGAAYELTGPEGARIVAARDYYQGAYFTAIEPGELLTAIRIPVPPTGHGYAYEKLKRKIGDYATAAAAVVLTMSGGKCVTASIGLTNVANTPLWAEEAGKVLVGTALDKPALDKAVALAEAITAPASDGRGPAEYRTKMAGVMLRRAVERAKARAKN
B6: iodotyrosine deiodinase (Haliscomenobacter hydrossis, UniProt F4KU78); chain MKQKPAFIPYAGAQFEPEEMLSKSAEYYQFMDHRRTVREFSNRAIPLEVIENIVMTASTAPSGAHKQPWTFVVVSDPQIKAKIRQAAEKEEFESYNGRMSNEWLEDLQPFGTDWHKPFLEIAPYLIVVFRKAYDVLPDGTQRKNYYVQESVGIACGFLLAAIHQAGLVALTHTPSPMNFLQKILQRPENERPFLLVPVGYPAEGAMVPDLQRKDKAAVMVVY
B7: protein (Danio rerio, UniProt A0ACM8QCA3); chain MEVSEFNLLYKGFLLPKLAHTEESLQYLENFKVKDDDVFAVTYPKSGTTWMQNILPPLLNGGDLTPVQTVPNWDRAPWLEEIRAAVVLEERPSPRAIVSHMPYRLMPSSFYKSKAKVIYVARNPKDVIVSSYHFHKMASFLEDPGTFDDFVNKFLSGEIVFGKWSDHIKSWRNPELKDRILYVTYEEMLQDLRGVLCRMLKFLGRELSTEALDRVVSNSTFKNMKTNKMSNYTMVPQEIMDNNKSAFLRKGVAGDWKNFFSPELDAKFTAVIREEMKGTNIKFPWDEE
B8: TcA (Trypanosoma cruzi, UniProt Q4DRC4); chain MFIRLFAREEEGEKEGKICHMPREYEFAEKILFTEEEIRTRIKEVAKRIADDYKGKGLRPYVNPLVLISVLKGSFMFTADLCRALCDFNVPVRMEFICVSSYGEGLTSSGQVRMLLDTRHSIEGHHVLIVEDIVDTALTLNYLYHMYFTRRPASLKTVVLLDKREGRRVPFSADYVVANIPNAFVIGYGLDYDDTYRELRDIVVLRPEVYAEREAARQKKQRAIGSADTDRDAKREFHSKY
B9: Alanine racemase (Geobacillus stearothermophilus, UniProt P10724); chain MNDFHRDTWAEVDLDAIYDNVENLRRLLPDDTHIMAVVKANAYGHGDVQVARTALEAGASRLAVAFLDEALALREKGIEAPILVLGASRPADAALAAQQRIALTVFRSDWLEEASALYSGPFPIHFHLKMDTGMGRLGVKDEEETKRIVALIERHPHFVLEGLYTHFATADEVNTDYFSYQYTRFLHMLEWLPSRPPLVHCANSAASLRFPDRTFNMVRFGIAMYGLAPSPGIKPLLPYPLKEAFSLHSRLVHVKKLQPGEKVSYGATYTAQTEEWIGTIPIGYADGWLRRLQHFHVLVDGQKAPIVGRICMDQCMIRLPGPLPVGTKVTLIGRQGDEVISIDDVARHLETINYEVPCTISYRVPRIFFRHKRIMEVRNAIGRGESSA
B10: FMO3 V277A (Homo sapiens, UniProt P31513); chain GKKVAIIGAGVSGLASIRSCLEEGLEPTCFEKSNDIGGLWKFSDHAEEGRASIYKSVFSNSSKEMMCFPDFPFPDDFPNFMHNSKIQEYIIAFAKEKNLLKYIQFKTFVSSVNKHPDFATTGQWDVTTERDGKKESAVFDAVMVCSGHHVYPNLPKESFPGLNHFKGKCFHSRDYKEPGVFNGKRVLVVGLGNSGCDIATELSRTAEQVMISSRSGSWVMSRVWDNGYPWDMLLVTRFGTFLKNNLPTAISDWLYVKQMNARFKHENYGLMPLNGALRKEPVFNDELPASILCGIVSVKPNVKEFTETSAIFEDGTIFEGIDCVIFATGYSFAYPFLDESIIKSRNNEIILFKGVFPPLLEKSTIAVIGFVQSLGAAIPTVDLQSRWAAQVIKGTCTLPSMEDMMNDINEKMEKKRKWFGKSETIQTDYIVYMDELSSFIGAKPNIPWLFLTDPKLAMEVYFGPCSPYQFRLVGPGQWPGARNAILTQWDRSLKPMQTRVVGRLQKPCFFFHWLKLFAIPILLIAVFLVLT
B11: enzyme D185A (Thermococcus kodakarensis, UniProt Q5JID5); chain MLYVEILGNLPEMARDEVKAMLELGGGEIIGQDYLFLKVDAGEKAFPFLDRLGLAHEYGLLLVEADSVEELLQKAGEVEWPIKGAFKVDTETMANCRHDVLDLPRKLGAVIHAQGFRVNLSKPDTVVRVYCGERLYAGIRLRYFDPKDFEKRKAHHRPFFRPISLHPRVSRALVNLTKATREILAPFMGAGGILIEAGLLGLRVYGVDIRPEMVEGAETNLKHYGVRDYTLKLGDATRLEDLFPDKKFEAVATDPPYGTAATLAGRKRDELYRKALRSIYNVLEDGGRLAIAFPTDFNGKAEAEAVGFRTLGRYYQRVHKSLERYFYVFEK
UniProt P14780, sequence (whole entry, looked up): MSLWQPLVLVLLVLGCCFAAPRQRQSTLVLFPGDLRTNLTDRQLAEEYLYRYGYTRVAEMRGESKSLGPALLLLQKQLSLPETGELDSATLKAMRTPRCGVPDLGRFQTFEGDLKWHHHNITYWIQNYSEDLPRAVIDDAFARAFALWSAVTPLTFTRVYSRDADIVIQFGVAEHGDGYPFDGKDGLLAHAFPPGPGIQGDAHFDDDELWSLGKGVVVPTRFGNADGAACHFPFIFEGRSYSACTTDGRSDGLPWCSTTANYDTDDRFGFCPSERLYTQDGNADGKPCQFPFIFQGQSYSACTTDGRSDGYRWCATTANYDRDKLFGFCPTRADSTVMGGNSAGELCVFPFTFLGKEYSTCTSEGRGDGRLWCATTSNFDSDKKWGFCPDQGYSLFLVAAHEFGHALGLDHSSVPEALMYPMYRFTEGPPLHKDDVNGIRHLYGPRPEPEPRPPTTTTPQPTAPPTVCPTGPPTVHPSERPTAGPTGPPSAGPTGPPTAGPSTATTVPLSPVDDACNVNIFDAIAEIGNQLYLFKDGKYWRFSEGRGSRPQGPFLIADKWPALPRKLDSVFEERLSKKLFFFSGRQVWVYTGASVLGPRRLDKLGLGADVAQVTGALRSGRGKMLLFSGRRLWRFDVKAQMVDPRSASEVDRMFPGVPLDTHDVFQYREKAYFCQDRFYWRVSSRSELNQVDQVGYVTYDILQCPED
UniProt Q9H015, sequence (whole entry, looked up): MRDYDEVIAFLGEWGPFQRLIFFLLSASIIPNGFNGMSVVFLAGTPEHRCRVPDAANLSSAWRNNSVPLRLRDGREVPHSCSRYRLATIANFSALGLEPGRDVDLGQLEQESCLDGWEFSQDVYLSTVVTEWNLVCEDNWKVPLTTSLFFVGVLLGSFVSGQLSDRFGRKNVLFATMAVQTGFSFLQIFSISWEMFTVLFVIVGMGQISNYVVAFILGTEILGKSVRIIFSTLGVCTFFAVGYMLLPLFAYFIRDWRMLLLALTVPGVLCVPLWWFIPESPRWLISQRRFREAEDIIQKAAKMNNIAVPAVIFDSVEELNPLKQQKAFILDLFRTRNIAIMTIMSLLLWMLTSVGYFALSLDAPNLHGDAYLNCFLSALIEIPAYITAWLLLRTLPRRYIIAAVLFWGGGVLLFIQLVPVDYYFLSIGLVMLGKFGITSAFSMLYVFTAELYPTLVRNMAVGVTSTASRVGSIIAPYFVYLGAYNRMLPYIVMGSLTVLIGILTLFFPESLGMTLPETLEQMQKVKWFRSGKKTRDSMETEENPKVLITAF
UniProt P12081, sequence (whole entry, looked up): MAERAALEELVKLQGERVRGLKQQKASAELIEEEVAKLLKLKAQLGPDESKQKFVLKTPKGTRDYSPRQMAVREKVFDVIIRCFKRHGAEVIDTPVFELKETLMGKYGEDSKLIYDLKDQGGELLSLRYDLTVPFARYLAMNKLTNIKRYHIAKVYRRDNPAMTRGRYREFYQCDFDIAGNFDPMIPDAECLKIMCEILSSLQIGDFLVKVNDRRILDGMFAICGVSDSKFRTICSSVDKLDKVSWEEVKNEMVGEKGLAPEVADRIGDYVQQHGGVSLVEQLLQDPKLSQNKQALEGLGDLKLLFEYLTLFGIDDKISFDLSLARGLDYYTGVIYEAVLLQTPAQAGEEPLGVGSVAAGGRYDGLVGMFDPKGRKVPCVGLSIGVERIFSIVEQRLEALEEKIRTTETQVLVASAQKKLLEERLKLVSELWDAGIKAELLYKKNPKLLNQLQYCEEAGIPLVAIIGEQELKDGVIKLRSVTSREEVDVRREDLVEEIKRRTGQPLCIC

HCT (Coleus scutellarioides, UniProt E8ZAP2)  Km (O=C(O)C1=C[C@@H](O)[C@@H](O)[C@H](O)C1; pH 8, pseudo-first-order, added: p-coumaroyl CoA): 388 µM
B1 (UGT84B1)  Km (O=C(O)Cc1c[nH]c2ccccc12; pH 7.5, 30 °C, added: UDP-glucose 4 mM, MgSO4 2.5 mM): 23.1 µM
B2 (enzyme R228K)  Km (O=P(O)(O)O; pH 6.5, 25 °C, apparent, not purified): 103 µM
Ptb (Listeria monocytogenes, UniProt Q8Y7B7)  Km (CCCC(=O)SCCNC(=O)CCNC(=O)[C@H](O)C(C)(C)COP(=O)(O)OP(=O)(O)OC[C@H]1O[C@@H](n2cnc3c(N)ncnc32)[C@H](O)[C@@H]1OP(=O)(O)O; pH 7.5, 25 °C, apparent): 79.9 µM
B3 (oxdC T165S)  Km (O=C(O)C(=O)O; pH 4.2, 25 °C): 9000 µM
B4 (enzyme)  Km (Cc1onc(-c2ccccc2)c1C(=O)N[C@@H]1C(=O)N2[C@@H]1SC(C)(C)[C@@H]2C(=O)O; pH 7): 4 µM
MMP9 (Homo sapiens, UniProt P14780)  Km (CSCC[C@H](NC(=O)CNC(=O)[C@H](CC(C)C)NC(=O)[C@@H]1CCCN1C(=O)CNC(C)=O)C(=O)N[C@@H](Cc1c[nH]cn1)C(=O)NCC(=O)N[C@@H](CCCCN)C(N)=O): 727 µM
B5 (CODH)  Km (O=C1C=CC(=O)C=C1; pH 7.2, 25 °C, anaerobic, added: CO saturating): 16.4 µM
B6 (iodotyrosine deiodinase)  Km (N[C@@H](Cc1cc(F)c(O)c(I)c1)C(=O)O; pH 7.4, 25 °C): 38 µM
alanine aminopeptidase (Neisseria meningitidis, UniProt Q9JYV4)  Km (NC(=O)Cc1cc(=O)oc2cc(NC(=O)[C@@H](N)CCCCOCc3ccccc3)ccc12; pH 7.5, 37 °C): 59.9 µM
B7 (protein)  Km (C[C@H](CCCC(CO)CO)[C@H]1CC[C@H]2[C@@H]3[C@H](O)C[C@@H]4C[C@H](O)CC[C@]4(C)[C@H]3C[C@H](O)[C@]12C; pH 7, 28 °C, substrate inhibition, added: PAPS 14 µM): 15.8 µM
B8 (TcA)  Km (O=c1[nH]c(=O)c2[nH]cnc2[nH]1; pH 8.3, 37 °C, apparent, added: PRPP 1 mM, MgCl2 12 mM): 160 µM
B9 (Alanine racemase)  Km (C[C@H](N)C(=O)O; pH 8.9, 25 °C, L to D direction): 5400 µM
SLC22A4 (Homo sapiens, UniProt Q9H015)  Km (Nc1ccn([C@@H]2O[C@H](CO)[C@@H](O)[C@@H]2O)c(=O)n1; single saturable site, not purified): 1.95 µM
B10 (FMO3 V277A)  Km (CN1CCC[C@H]1c1cccnc1; HEK293 microsomes; 37 °C, not purified, added: NADPH regenerating system): 700 µM
HARS1 (Homo sapiens, UniProt P12081)  Km (Nc1ncnc2c1ncn2[C@@H]1O[C@H](COP(=O)(O)OP(=O)(O)OP(=O)(O)O)[C@@H](O)[C@H]1O; pH 7.5, added: histidine, tRNAHis 5 µM, MgCl2 10 mM, KCl 150 mM): 44.2 µM
B11 (enzyme D185A)  Km (C[S+](CC[C@H](N)C(=O)O)C[C@H]1O[C@@H](n2cnc3c(N)ncnc32)[C@H](O)[C@@H]1O; pH 7.5, 50 °C, apparent): 6 µM

Excerpt of the above:
Ptb (Listeria monocytogenes, UniProt Q8Y7B7)  Km (CCCC(=O)SCCNC(=O)CCNC(=O)[C@H](O)C(C)(C)COP(=O)(O)OP(=O)(O)OC[C@H]1O[C@@H](n2cnc3c(N)ncnc32)[C@H](O)[C@@H]1OP(=O)(O)O; pH 7.5, 25 °C, apparent): 79.9 µM
B3 (oxdC T165S)  Km (O=C(O)C(=O)O; pH 4.2, 25 °C): 9000 µM
B4 (enzyme)  Km (Cc1onc(-c2ccccc2)c1C(=O)N[C@@H]1C(=O)N2[C@@H]1SC(C)(C)[C@@H]2C(=O)O; pH 7): 4 µM
